Measured values from different studies.
Protocols differ between the studies behind these lines. Several values in a cell are separate wells, animals, samples, runs or records.
Target: Serine/threonine-protein kinase Sgk3 (SGK3, Homo sapiens, UniProt Q96BR1)

`C=CC(=O)Nc1cccc(-c2cnc3[nH]cc(C(=O)NC(C)(C)C)c3n2)c1` gave an inhibition of 6% and 2% (kinase activity; 0.1 µM).
`Cc1cnc2nc1Nc1cccc(c1)COC/C=C/COCc1cc(ccc1OCCN1CCOCC1)N2` has a remaining binding of 98% (binding, competition with immobilised ligand; 0.1 µM).
`Cc1ccc(C(=O)Nc2ccc(CN3CCN(C)CC3)c(C(F)(F)F)c2)cc1C#Cc1cnc2cccnn12` gave a Hill slope of 1 (target engagement, NanoBRET; human cells).
For `NC(=O)C[C@H]1CCc2sc3ncnc(O[C@H]4CC[C@H](N5CCOCC5)CC4)c3c21`, the inhibition was 6% (enzyme activity, inhibitor; 10 µM).
The remaining binding of `Cc1ccc(-c2c(/C=C(\C#N)C(=O)NC(C)C)n(CCCO)c3ncnc(N)c23)cc1` is reported as 66% (cell-free assay, competition with immobilised ligand; 1 µM).
With `COc1cc(Nc2nccc(-c3cnn4nc(OC)ccc34)n2)cc(C(F)(F)F)c1` the remaining binding was 100% (binding, competition with immobilised ligand; 1 µM).
`Cc1cccc(O[C@H]2CCC[C@@H](C(C)CNCc3ccncc3)C2)c1` (relative stereo) has an inhibition of -2% (enzyme activity, inhibitor; 10 µM).
`C=CC(=O)N1CCc2ccc(-n3c(=O)ccc4cnc5ccc(-c6cnn(C)c6)cc5c43)cc21` has a remaining binding of 67% (KINOMEscan; 1 µM; relative to: DMSO control).
With `COc1c(OCCCN2CCOCC2)ccc2c1N=C(NC(=O)c1cnc(N)nc1)N1CCN=C21` the remaining activity was 82% (kinase activity, inhibitor; 1 µM; relative to: untreated control).
`O=C(Cc1ccc(OCc2ccccc2)cc1)NC1(C(=O)O)CCN(C(=O)c2ccc(-c3cccc(Cl)c3)cc2)CC1` — result for “activity vs control”: 120% (enzyme activity, inhibitor; 10 µM).
For `COc1c(Cl)cccc1Nc1c(-c2ccncc2C#C[C@@]2(C)CCCN2C(=O)/C=C/CN(C)C)[nH]c2c1C(=O)NCC2`, the remaining binding was 100% (binding, competition with immobilised ligand; 3 µM).
`C=CC(=O)N1CCCC(n2c(=O)c3ncccc3n(Cc3ccc(Oc4ccccc4)cc3)c2=O)C1` (centres unmarked) has a remaining binding of 70% (cell-free assay, competition with immobilised ligand; 1 µM).
Under “activity vs control”, `CNC(=O)C[C@H](Cc1ccc(C#N)cc1)NC(=O)c1cc(-c2ccc(CN[C@H](C)c3ccc(C)cc3)o2)ccc1Cl` is recorded as 101% (enzyme activity, inhibitor; 1 µM).
The remaining activity of `O=C=[N][Ru-4]123([n]4c5ccc(O)cc5c5c6c(c7cc(F)c[n+]1c7c54)C(=O)NC6=O)[S+]1CC[S+]2CC[S+]3CC1` (centres unmarked) is reported as 92% (enzyme activity; 100 nM, human enzyme, with: 10 µM ATP; relative to: untreated).
With `CCn1cc(C(=O)O)c(=O)c2c(N)c(F)c(NC3CCCCC3)cc21` the inhibition was 2.4% (kinase activity; 0.1 µM, with: ATP at Km).
With `CCN1CCN(Cc2ccc(C(=O)Nc3ccc(C)c(NCc4cnc5[nH]ccc5c4OC)c3)cc2C(F)(F)F)CC1` the remaining binding was 48% (binding, competition with immobilised ligand; 1 µM).
`CNC(=O)C1CCN(c2cc(C)c(F)cc2NC(=O)c2ccc(-c3cc(O)ccc3C)c(C)c2)CC1` gave a remaining binding of 63% (binding, competition with immobilised ligand; 1 µM).
